{"data": "Measured values from different studies", "note": "Lines come from different studies, so protocols differ. Values joined by “and” are separate records of one study, mostly repeats; a detail may differ. Numbers after ± are the reported error."}
{"SMILES": "OC(c1cc(C(F)(F)F)nc2c(C(F)(F)F)cccc12)C1CCCCN1 (centres unmarked)", "target or system": "Plasmodium falciparum", "test": "parasite growth", "system": "CAM3 REV", "endpoint": "EC50", "value": "9.4 ± 2.6 nM"}
{"SMILES": "Cc1nc2c(C#N)cccc2n1-c1ccc(C(=O)NC2CC2)s1", "target or system": "Plasmodium falciparum", "test": "parasite growth, SYBR Green", "system": "3D7", "conditions": "72 h", "endpoint": "EC50", "value": "77.1 nM"}
{"SMILES": "C[C@H](NC(=O)Cc1cc(F)cc(F)c1)C(=O)N[C@@H]1C(=O)N(C)c2ccccc2-c2ccccc21", "target or system": "Dengue virus", "test": "viral replication, inhibitor, luciferase", "system": "NHDF", "conditions": "48 h", "endpoint": "EC50", "value": "106 nM"}
{"SMILES": "Cc1cc(Nc2ccc(Cl)cc2)n2nc(C(F)(F)F)nc2n1", "target or system": "Plasmodium falciparum", "test": "parasite growth, SYBR Green", "system": "3D7", "conditions": "72 h", "endpoint": "EC50", "value": "> 12500 nM"}
{"SMILES": "O=S(=O)(c1cccc(-c2ccc3ncnc(Nc4ccc(OCc5cccc(F)c5)c(Cl)c4)c3c2)c1)N1CCCCC1", "target or system": "Plasmodium falciparum", "test": "parasite growth, SYBR Green", "system": "D6", "conditions": "blood stage", "endpoint": "EC50", "value": "320 nM"}
{"SMILES": "O=C1NC2(CC2)COc2ncc(F)cc2[C@H]2COCCN2c2ccn3ncc1c3n2", "system": "Sprague-Dawley rat, male, adrenals", "conditions": "oral, 2.5 mg/kg/day, 4 weeks dosing, end of recovery", "endpoint": "organ-to-body weight ratio", "value": "0.011 ± 0.001%"}
{"SMILES": "O=S(=O)(c1ccc(-c2ccc3ncnc(Nc4ccc(OCc5ccc(F)cc5)c(Cl)c4)c3c2)cc1)N1CCOCC1", "target or system": "Plasmodium falciparum", "test": "parasite growth, SYBR Green", "system": "D6", "conditions": "blood stage", "endpoint": "EC50", "value": "170 nM"}
{"SMILES": "CCC1(CC)CC(=O)N(C2CCOc3ccc(C(=O)NC4CC(C)(C)Oc5ccccc54)cc32)C(=N)N1 (centres unmarked)", "target or system": "Plasmodium falciparum", "test": "parasite growth", "system": "3D7", "endpoint": "EC50", "value": "0.5 ± 0.2 nM"}
{"SMILES": "O=C(NCc1ccc(Cl)cn1)C(=O)C(Cc1ccccc1)NC(=O)C1CC(F)CN1C(=O)C(NC(=O)C1CCC(F)(F)CC1)C1CCCCC1 (centres unmarked)", "target or system": "HCoV-HKU1", "test": "viral replication", "system": "human epithelial cells", "endpoint": "EC50", "value": "970 nM"}
{"SMILES": "O=C1C(O)=C([C@H]2CC[C@H](c3ccc(Cl)cc3)CC2)C(=O)c2ccccc21", "target or system": "Plasmodium falciparum", "test": "parasite growth", "system": "Dd2-ATV", "endpoint": "EC50", "value": "13.5 ± 1.6 nM"}
{"SMILES": "Cc1cc(Cl)ccc1OC(C)C(=O)N1CCc2ccccc21 (centres unmarked)", "target or system": "Plasmodium falciparum", "test": "parasite growth", "system": "Dd2", "endpoint": "EC50", "value": "155 ± 57 nM"}
{"SMILES": "C[C@H](NC(=O)[C@@H](O)c1cc(F)cc(F)c1)C(=O)N[C@@H]1C(=O)N(C)c2ccccc2-c2ccccc21", "target or system": "dengue virus 2", "test": "viral replication, luciferase reporter virus", "system": "Huh-7.5.1", "endpoint": "EC50", "value": "5 nM"}
{"SMILES": "CCCN(Cc1nnc(-c2ccco2)o1)C(=O)C1CCCN(C(=O)c2ccc(Cl)cc2)C1 (centres unmarked)", "target or system": "Plasmodium falciparum", "test": "parasite growth, SYBR Green", "system": "3D7", "endpoint": "EC50", "value": "98.3 nM"}
{"SMILES": "O=S(=O)(c1ccc(-c2ccc3ncnc(Nc4ccc(OCc5cccc(F)c5)c(Cl)c4)c3c2)cc1)N1CCCCC1", "target or system": "Plasmodium falciparum", "test": "parasite growth, SYBR Green fluorescence", "system": "C235 (TM91C235), drug-resistant", "endpoint": "EC50", "value": "240 nM"}
{"SMILES": "CC1(C)Cc2sc(NC(=O)Cc3ccc(S(N)(=O)=O)cc3)c(C#N)c2CN1CC1CCCCC1", "target or system": "Dengue virus 2", "test": "viral replication", "system": "P15-S9 passaged with DMSO", "endpoint": "EC50", "value": "5.89 nM and 6.57 nM"}
{"SMILES": "CN1CCN(S(=O)(=O)c2ccc(-c3ccc4ncnc(Nc5ccc(OCc6ccccc6)cc5)c4c3)cc2)CC1", "target or system": "Plasmodium falciparum", "test": "parasite growth, SYBR Green fluorescence", "system": "C235 (TM91C235), drug-resistant", "endpoint": "EC50", "value": "36 nM"}
{"SMILES": "Cc1nc2ccc(-c3ccc(OC(F)(F)F)cc3)cc2c(O)c1C#N", "target or system": "Plasmodium falciparum", "test": "parasite growth, SYBR Green", "system": "3D7", "endpoint": "EC50", "value": "9.82 nM"}
{"SMILES": "O=S(=O)(c1ccc(-c2ccc3ncnc(Nc4ccccc4)c3c2)cc1)N1CCOCC1", "target or system": "Plasmodium falciparum", "test": "parasite growth, SYBR Green fluorescence", "system": "W2, drug-resistant", "endpoint": "EC50", "value": "> 4000 nM"}
{"SMILES": "CC(NC(=O)c1cccc(C(c2ccccc2)N2C(=N)NC(C)(C(C)C)CC2=O)c1)c1ccccc1 (centres unmarked)", "target or system": "Plasmodium falciparum", "test": "parasite growth", "system": "3D7", "endpoint": "EC50", "value": "12.5 nM"}
{"SMILES": "CN(C)S(=O)(=O)c1ccccc1-c1ccc2ncnc(Nc3ccc(OCc4cccc(F)c4)c(Cl)c3)c2c1", "target or system": "Plasmodium falciparum", "test": "parasite growth, SYBR Green", "system": "D6", "conditions": "blood stage", "endpoint": "EC50", "value": "820 nM"}
{"SMILES": "C[C@H](Oc1ccc(C(=O)c2ccc(F)cc2)cc1)C(=O)N1CCc2ccc(C(F)(F)F)cc21", "target or system": "Plasmodium falciparum", "test": "parasite growth, SYBR Green", "system": "3D7", "endpoint": "EC50", "value": "1.83 nM"}
{"SMILES": "CC(C)(C)OC(=O)N1CCN(S(=O)(=O)c2ccc(-c3ccc4ncnc(Nc5ccc(OCc6cccc(F)c6)c(Cl)c5)c4c3)cc2)CC1", "target or system": "Plasmodium falciparum", "test": "parasite growth, SYBR Green", "system": "D6", "conditions": "blood stage", "endpoint": "EC50", "value": "270 nM"}
{"SMILES": "C[C@H]1Cc2c([nH]c3cc(Cl)c(F)cc23)[C@@]2(N1)C(=O)Nc1ccc(Cl)cc12", "target or system": "Plasmodium falciparum", "test": "parasite growth", "system": "Dd2-ATV", "endpoint": "EC50", "value": "1.9 ± 0.1 nM"}
{"note": "For quick reference, copied from above:"}
{"SMILES": "O=C1C(O)=C([C@H]2CC[C@H](c3ccc(Cl)cc3)CC2)C(=O)c2ccccc21", "target or system": "Plasmodium falciparum", "test": "parasite growth", "system": "Dd2-ATV", "endpoint": "EC50", "value": "13.5 ± 1.6 nM"}
{"SMILES": "OC(c1cc(C(F)(F)F)nc2c(C(F)(F)F)cccc12)C1CCCCN1 (centres unmarked)", "target or system": "Plasmodium falciparum", "test": "parasite growth", "system": "CAM3 REV", "endpoint": "EC50", "value": "9.4 ± 2.6 nM"}
